Experimental data gathered from unrelated publications.
Every numbered part comes from another study and shows a few of its results, in no order.

Block 1
Target: Sal-like protein 4, full length isoform B (SALL4, Homo sapiens, UniProt Q9UJQ4-2, residues 1-616)
Technique: universal PBM
Molecule type: double-stranded DNA, one strand shown
Medium: in vitro
Tested at: not given
Notes: 8-mer, flanks averaged, mean of replicates
Reading: higher = stronger binding
Measurement: E-score
CAAAGGCC: -0.249
CCTCGGGA: -0.297
ACGTCCGA: -0.153
AGAAGCTG: -0.0875
ATGGCTGA: 0.0415
GTGTAAAC: 0.0358
GGGCGAAA: 0.0887
ACCTAGAC: -0.0532

Block 2
Target: Replicase polyprotein 1ab, polymerase (rep, Severe acute respiratory syndrome coronavirus 2, UniProt P0DTD1)
Effect on: enzyme activity
Mode: inhibitor
Tested at: 20 µM
Measurement: inhibition
CCOC(=O)c1ncc2[nH]c3cccc(OC(C)C)c3c2c1C: 0.85%
Cc1cc(/C=c2/sc3nc4ccccc4n3c2=O)c(C)n1-c1ccccc1: -0.81%
CN(C)CCc1c[nH]c2ccc(C[C@H]3COC(=O)N3)cc12: -19.4%
CCCCOC(=O)c1ccc(O)cc1: -0.58%
COc1ccc(C[C@@H](C)[C@@H](C)Cc2ccc(OC)c(OC)c2)cc1OC: 3.12%
CCc1[nH]c(=O)[nH]c1C(=O)c1ccncc1: 2.08%
C=C[C@H]1CN2CC[C@H]1C[C@H]2[C@H](O)c1ccnc2ccccc12: 3.41%
CC1=C(C(=O)OC2CCCCC2)C(c2ccc([N+](=O)[O-])cc2)C2=C(CC(C)(C)CC2=O)N1 (stereo not shown): 4.1%
CC1(C)OC2(C)C(O)CC1CC2O (stereo not shown): -2.53%
CN1C(C(=O)Nc2ccccn2)=C(O)c2ccccc2S1(=O)=O: 26.9%
CC(=O)NCC(=O)N1[C@@H]2CC[C@H]1c1ccc(Nc3ncc(C(F)(F)F)c(NC4CCC4)n3)cc12: -2.47%
S=C(S)N1CCCC1: 2.25%
CN(C)c1ccccc1CN1CCCN(Cc2ccccc2N(C)C)C1c1ccncc1: -6.14%
CN[C@@H](C)C(=O)N[C@H](C(=O)N1CCC[C@H]1C(=O)N[C@H]1c2ccccc2C[C@H]1OCC#CC#CCO[C@@H]1Cc2ccccc2[C@@H]1NC(=O)[C@@H]1CCCN1C(=O)[C@@H](NC(=O)[C@H](C)NC)C1CCCCC1)C1CCCCC1: 7.25%
Clc1ccc(C(Cn2ccnc2)OCc2ccsc2Cl)c(Cl)c1 (stereo not shown): -5.89%
CC(C)Oc1cccc(-n2c(CCc3c[nH]c4ccc(Br)cc34)nc3ccccc3c2=O)c1: -1.35%
COc1cc(NS(=O)(=O)c2ccc(N)cc2)nc(OC)n1: 21.6%
CNCCCOc1cc(F)c(-c2c(Cl)nc3ncnn3c2N[C@@H](C)C(F)(F)F)c(F)c1: -5.02%
CO[C@H]1C[C@@H]2CC[C@@H](C)[C@@](O)(O2)C(=O)C(=O)N2CCCC[C@H]2C(=O)O[C@H]([C@H](C)C[C@@H]2CC[C@@H](O)[C@H](OC)C2)CC(=O)[C@H](C)/C=C(\C)[C@@H](O)[C@@H](OC)C(=O)[C@H](C)C[C@H](C)/C=C/C=C/C=C/1C: 2.9%
O=C(O)c1nc(=O)[nH]c(=O)[nH]1: -1.96%
Nc1ccc(S(=O)(=O)Nc2nccs2)cc1: 28.2%
CCCCc1ccc(C(N)=O)nc1: 1.33%
Cc1c(-c2ccccc2)oc2c(C(=O)OCCN3CCCCC3)cccc2c1=O: 2.22%
O=C(Nc1ccc(Cl)nc1)c1ccc(Cl)cc1: -9.78%
O=C(Nc1ccc(Oc2ccc(Cl)cn2)c(Cl)c1)c1ccccn1: 1.15%

Block 3
Target: Interferon regulatory factor 5, full length, phosphomimetic (IRF5, Homo sapiens, UniProt Q13568-2, residues 1-514, S451D/S453D/S456D/S462D)
Technique: protein-binding microarray
Molecule type: double-stranded DNA, one strand shown
Medium: in vitro
Tested at: 940 nM top
Notes: 60-bp whole probe
Together with: salmon DNA 0.4 mg/ml
Reference: random background probes
Reading: higher = stronger binding
Measurement: fitted relative affinity
All sequences stand within: GCCTAGCAC … GTCTTGATTCGCTTGACGCTGCTG
TTAGGTATCGACTTTCGATTAGTGCTA: 5.87 z-score
GACGGACGGCTTATCCTGACGTGCTAG: -0.537 z-score
GACGAACTGGGGTATCGAGATGTGCTA: 0.804 z-score
GACGGTTTCCTACTGCTGTCGTGCTAG: 1.64 z-score
CTGTACATCTATGTAGAAAGGTGCTAG: 0.00556 z-score
TTAGGACTGGGGTTTCGGTTCGTGCTA: 5.08 z-score
GACGATGTCAGTATCGAGACGTGCTAG: 1.44 z-score
TTAGATATCAGGTTTCGATTAGTGCTA: 5.77 z-score

Block 4
Cell line: HEK-293T-ACE2
Tested at: concentration not given
Reference: vehicle
Measurement: cell number
Cc1nccn1CC1CCc2c(c3ccccc3n2C)C1=O.Cl (stereo not shown): 96.5%
Br.CN1[C@@H]2CC[C@H]1C[C@@H](OC(=O)C(O)c1ccccc1)C2 (stereo partly shown): 105%
OC[C@H]1O[C@@H](c2ccc(Cl)c(Cc3ccc(O[C@H]4CCOC4)cc3)c2)[C@H](O)[C@@H](O)[C@@H]1O: 103%

Block 5
Target: Replicase polyprotein 1ab, main protease (rep, Severe acute respiratory syndrome coronavirus 2, UniProt P0DTD1)
Effect on: enzyme activity
Mode: inhibitor
Tested at: 20 µM
Notes: primary screen
Measurement: inhibition
N[C@@H](C(=O)N[C@@H]1C(=O)N2C(C(=O)O)=C(Cl)CS[C@H]12)c1ccccc1: 76%
C=C1c2cccc(O)c2C(=O)C2=C(O)[C@]3(O)C(=O)C(C(N)=O)=C(O)[C@@H](N(C)C)[C@@H]3[C@@H](O)[C@H]12: 95.2%
CC(=O)OC/C=C(C)/C=C/C=C(C)/C=C/C1=C(C)CCCC1(C)C: 22.9%

Block 6
Target: RNA binding protein fox-1 homolog 2, RRM domain, GST-SBP tag (RBFOX2, Homo sapiens, UniProt O43251-10, residues 100-194)
Technique: RNA Bind-n-Seq
Molecule type: RNA
Medium: in vitro
Tested at: 365 nM
Notes: natural RNA segment, single round, ends assumed
Reference: no-protein control
Reading: higher = stronger binding
Measurement: RBNS enrichment (R)
All sequences stand within: GGGAGUUCUACAGUCCGACGAUC … UGGAAUUCUCGGGUGCCAA
Target sequence (chain): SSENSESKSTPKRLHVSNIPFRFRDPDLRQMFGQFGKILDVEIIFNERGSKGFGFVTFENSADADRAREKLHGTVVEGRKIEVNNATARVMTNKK
CCAACUACCAACACCCGACUCUAUUGGUGCAUUUAAAAUGUGAUUCCAUUUUUUCUUACAAUUCUUCAGGGAACUUACCUGCAUUAAGUGAGGUUAAAUGCAUUCAGGAG: 0.584
GAGGUUUCUCUGCCUAGCCAUAGCAUCAUUAAUAGAUGUCCAAAAAUGAGCAAUUCUGGGAAUCACGCAGUGGGUUUUAAGGUAGUUAAUAUCUAUGGUAUAUUAAAAGG: 0.334
GGGAGAAUUGCACACAGAUGUGAAAUGAAUGUAAUCUAAUAGAAGCCUAAUCAGCCCACCAUGUUCUCCACUGAAAAAUCCUCUUUCUUUGGGGUUUUUCUUUCUUUCUU: 2.65
AAUUUCCUCUGACCCAUGGGAAUGAAAAUACUUAAAUACUGUAAAGCAUAUCUAUUAAUAAUUCCCCCAAUUUUUUAAACUAACAAAAUGGAAUGUUAACUGAAUGGAAU: 0.635
CUGUUGUUUAGCUUACCUUUCUGCUAGGAUUGGCUUCCCGCAGAGGGCAGGGCCCAUCCUAAGCAGCUUCCAAGUCCCACAAAGGUGGCUUGUGGGAGGAUUUGGAAGGA: 0.762
UCGACAAGCCAGCACAGGCGAAGUGAUGGUUCCCACAGCACCCCCAAUAAAAACUGGGAUUUUGAAUGUGGCUCUACAAGUUAAACAUUUCUGUGUGUUGUGUAUGCUAG: 0.362
AGCUGCCCACCCAACCUGGUCUUCACACCAGAUUGCACAGGAUACUGGGUCUUGUCUAUCUUGAUGGAGAAGAGGGGUUCCUGCCCAGGAUCUUACAACACAGCAAGUAG: 0.567
GCAGGUGAAUCAUAAAGUCAGUGAAGACGCCGCCCUCUGAUUCUCCCCACUGUAGGGGGAAGGAAGGGAGUGACUUCAGUGGGUUCUCUACCAAAAACAGGGCUAAGGGC: 0.364

Some of these lines once more (block 2):
CC(C)Oc1cccc(-n2c(CCc3c[nH]c4ccc(Br)cc34)nc3ccccc3c2=O)c1: -1.35%
COc1cc(NS(=O)(=O)c2ccc(N)cc2)nc(OC)n1: 21.6%
CNCCCOc1cc(F)c(-c2c(Cl)nc3ncnn3c2N[C@@H](C)C(F)(F)F)c(F)c1: -5.02%
CO[C@H]1C[C@@H]2CC[C@@H](C)[C@@](O)(O2)C(=O)C(=O)N2CCCC[C@H]2C(=O)O[C@H]([C@H](C)C[C@@H]2CC[C@@H](O)[C@H](OC)C2)CC(=O)[C@H](C)/C=C(\C)[C@@H](O)[C@@H](OC)C(=O)[C@H](C)C[C@H](C)/C=C/C=C/C=C/1C: 2.9%
O=C(O)c1nc(=O)[nH]c(=O)[nH]1: -1.96%
Nc1ccc(S(=O)(=O)Nc2nccs2)cc1: 28.2%
CCCCc1ccc(C(N)=O)nc1: 1.33%
